Measured values collected from several papers.
Parts stem from different laboratories: compare values within a part only. Substitutions count along the parent as printed.

Set 1 — target: CEP164, C-terminal peptide (human); method: DHFR complementation, deep sequencing; medium: yeast; reference: wild type; direction: higher = weaker binding
Setting: single substitutions, model-inferred values
Parent: PDZK1, PDZ domain 2 (human); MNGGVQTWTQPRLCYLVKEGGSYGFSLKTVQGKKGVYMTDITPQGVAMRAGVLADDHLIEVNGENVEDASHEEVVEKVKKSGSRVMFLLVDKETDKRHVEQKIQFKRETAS; partner HNRVKVYRF
Change | binding free energy change [kcal/mol]
K34P | 0.216
M38C | 0.589
V30A | 0.0853
Q10C | 0.147
T94L | -0.108
I41E | 1.1
F87G | 1.79
K102L | -0.0415

Set 2 — target: tungstate, free oxyanion; method: microfluidic competitive inhibition; medium: in vitro, cell-free expressed; concentration: not given; direction: lower = stronger binding
Setting: derived from inhibition constants, unchanged parent 2230 nM
Parent: PafA, mature enzyme, eGFP fusion (Elizabethkingia meningoseptica, UniProt Q9KJX5); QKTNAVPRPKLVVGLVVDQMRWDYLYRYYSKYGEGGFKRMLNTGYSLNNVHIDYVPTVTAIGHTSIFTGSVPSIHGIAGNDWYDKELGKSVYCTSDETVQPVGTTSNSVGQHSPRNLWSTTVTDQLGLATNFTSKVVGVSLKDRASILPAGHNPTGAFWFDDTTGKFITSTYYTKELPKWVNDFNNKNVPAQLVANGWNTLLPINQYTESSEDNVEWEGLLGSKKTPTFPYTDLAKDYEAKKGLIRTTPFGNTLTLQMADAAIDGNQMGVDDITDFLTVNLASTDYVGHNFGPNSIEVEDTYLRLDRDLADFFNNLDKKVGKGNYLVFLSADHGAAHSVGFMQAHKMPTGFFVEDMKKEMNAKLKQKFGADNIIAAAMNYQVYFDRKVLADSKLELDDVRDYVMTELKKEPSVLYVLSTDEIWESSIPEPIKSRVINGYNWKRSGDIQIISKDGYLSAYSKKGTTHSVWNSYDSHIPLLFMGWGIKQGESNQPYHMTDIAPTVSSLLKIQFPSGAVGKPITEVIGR
Change | oxyanion analog dissociation constant
G110A | 2.52 µM
E395V | 2.89 µM
L141G | 41.7 µM
L478V | 2.89 µM

Set 3 — target: CCNB3, cyclin fold, Cln2 fusion (human); method: yeast growth competition, sequencing; medium: yeast; setting: strong parent motif; reference: not given; direction: higher = stronger binding; parent: viral docking peptide; TSVRRALFTGGSD
Change | normalised enrichment score
TSVRSALFTGGSD [R5S] | -0.105
TSVCRALFTGGSD [R4C] | 0.489
TSVMRALFTGGSD [R4M] | 0.417
TSVRRCLFTGGSD [A6C] | 2.37
TSVRRMLFTGGSD [A6M] | 0.681
TSYRRALFTGGSD [V3Y] | 0.416
TSVRRALFAGGSD [T9A] | 1.25
TSVRRTLFTGGSD [A6T] | 6.31
TSVRRAAFTGGSD [L7A] | 0.177
TSVRRALFTGSSD [G11S] | 2.08
TSVRRALDTGGSD [F8D] | -0.21
TSVRRALFTGGED [S12E] | 2.17
TSVGRALFTGGSD [R4G] | -0.25
TSVRRALFTGGHD [S12H] | 1.68
TSVRTALFTGGSD [R5T] | 0.19
TSNRRALFTGGSD [V3N] | -0.225
TSVRRLLFTGGSD [A6L] | 1.28
TSVRRALFHGGSD [T9H] | 1.87
TSVRRKLFTGGSD [A6K] | 3.62

Set 4 — method: RNAcompete; form: RNA; medium: in vitro; concentration: 20 nM; setting: 7-mer, probes averaged, single round; reference: mean of 7-mers; direction: higher = stronger binding
Target: PABPC1L2, full length, GST fusion (mouse, UniProt A0ABA7IW68)
Target sequence (chain): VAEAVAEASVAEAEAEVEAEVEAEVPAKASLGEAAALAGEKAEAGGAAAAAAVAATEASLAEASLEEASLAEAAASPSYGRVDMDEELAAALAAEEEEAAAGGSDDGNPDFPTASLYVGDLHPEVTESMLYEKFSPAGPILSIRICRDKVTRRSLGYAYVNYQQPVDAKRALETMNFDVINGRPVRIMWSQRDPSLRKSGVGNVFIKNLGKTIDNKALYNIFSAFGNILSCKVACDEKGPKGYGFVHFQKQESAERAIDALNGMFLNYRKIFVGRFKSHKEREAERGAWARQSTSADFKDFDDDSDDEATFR
Oligonucleotide | 7-mer Z-score
UCGUACU | -0.211
CGUCCUC | -0.4
CGUGAAC | -0.327
GAUGUCC | -0.275
UUAUACA | -0.0283
AGGAGUG | 0.12
GCUGGAC | -0.0156
GUUACCU | -0.251

Further values, each from its own experiment
Substance | target | assay | system | conditions | scale | measurement | value
PhoQ, residues 284 288 289 292 302 303 SLSLLA | PhoP, residues 12 14 15 18 19 VHSCL (Escherichia coli, UniProt P23836) | Sort-seq, measured: YFP reporter | E. coli | PhoQ-PhoP variant library, added: 10 µM Mg2+ | reference: high Mg2+ state, higher = stronger signaling | fold induction | 5.04

For quick reference, copied from above (set 1):
Change | binding free energy change [kcal/mol]
K34P | 0.216
M38C | 0.589
V30A | 0.0853
Q10C | 0.147
T94L | -0.108
I41E | 1.1
